Measurements collected from several papers.
Each line is one published result; not all experiments were run side by side. Values joined by “and” are separate records of one study, mostly repeats; a detail may differ.
Target: LIM domain kinase 1 (LIMK1, Homo sapiens, UniProt P53667)

SMILES	observed	action	method	concentration	baseline	measurement	value
Cc1cnc2nc1Nc1cccc(c1)COC/C=C/COCc1cc(ccc1OCCN1CCOCC1)N2	binding	–	–	0.1 µM	–	remaining binding	91%
COc1cc(Nc2nccc(-c3cnn4nc(OC)ccc34)n2)cc(C(F)(F)F)c1	binding	–	competition with immobilised ligand	1 µM	–	remaining binding	99%
CC(C)=CC1OC(C)(C)C2C=C3C(=O)C(Cl)=CC(O)C3C3C(O)C4OC4C(=O)C132 (stereo not shown)	cell-free assay	–	competition with immobilised ligand	10 µM	–	remaining binding	100%
C=CC(=O)Nc1cccc(-c2cnc3[nH]cc(C(=O)NC(C)(C)C)c3n2)c1	kinase activity	–	–	0.1 µM	–	inhibition	34% and 33%
Nc1ncc(-c2cc(-c3cnn(CC(F)(F)F)c3)ncc2F)nc1C(=O)NC1CNCC(F)C1 (stereo not shown)	enzyme activity	–	–	1 µM	DMSO control	remaining activity	91.7%
CNC(=O)C1CCN(c2cc(C)c(F)cc2NC(=O)c2ccc(-c3cc(O)ccc3C)c(C)c2)CC1	binding	–	competition with immobilised ligand	1 µM	–	remaining binding	100%
CNC1C[S+]2CC[S+]3CC[S+](C1)[Ru-4]321([N]=C=S)[n]2c3ccc(OC)cc3c3c4c(c5cc(F)c[n+]1c5c32)C(=O)NC4=O (stereo not shown)	–	–	KinomeScan	0.1 µM	untreated	remaining binding	100%
CN1CC[C@@H](COc2cnc(C#N)cc2-c2ccn3nc(NC(=O)C4CC4)cc3c2)C1	enzyme activity	inhibitor	–	1 µM	–	inhibition	10%
COc1c(Cl)cccc1Nc1c(-c2ccncc2C#C[C@@]2(C)CCCN2C(=O)/C=C/CN(C)C)[nH]c2c1C(=O)NCC2	binding	–	competition with immobilised ligand	3 µM	–	remaining binding	100%
Cc1ccc(-c2c(/C=C(\C#N)C(=O)NC(C)C)n(CCCO)c3ncnc(N)c23)cc1	cell-free assay	–	competition with immobilised ligand	1 µM	–	remaining binding	97%
COCC12C(=O)NC3C4(C(OC)CC1O)C1CC5(O)C(OC)C(O)C(OC(C)=O)(C1C5OC(=O)c1ccccc1)C3(O)C(OC)C24 (stereo not shown)	kinase activity	inhibitor	ProQinase kinase profiling	25 µM	control	remaining activity	81% and 85%
CCN1CCN(Cc2ccc(C(=O)Nc3ccc(C)c(NCc4cnc5[nH]ccc5c4OC)c3)cc2C(F)(F)F)CC1	binding	–	competition with immobilised ligand	1 µM	–	remaining binding	50%
CNC(=O)C[C@H](Cc1ccc(C#N)cc1)NC(=O)c1cc(-c2ccc(CN[C@H](C)c3ccc(C)cc3)o2)ccc1Cl	enzyme activity	inhibitor	–	1 µM	–	activity vs control	102%
O=C(Cc1ccc(OCc2ccccc2)cc1)NC1(C(=O)O)CCN(C(=O)c2ccc(-c3cccc(Cl)c3)cc2)CC1	enzyme activity	inhibitor	–	10 µM	–	activity vs control	74%
NC(=O)C[C@H]1CCc2sc3ncnc(O[C@H]4CC[C@H](N5CCOCC5)CC4)c3c21	enzyme activity	inhibitor	–	10 µM	–	inhibition	8%
COc1c(OCCCN2CCOCC2)ccc2c1N=C(NC(=O)c1cnc(N)nc1)N1CCN=C21	kinase activity	inhibitor	–	1 µM	untreated control	remaining activity	102%

A few entries again:
SMILES	observed	action	method	concentration	baseline	measurement	value
CN1CC[C@@H](COc2cnc(C#N)cc2-c2ccn3nc(NC(=O)C4CC4)cc3c2)C1	enzyme activity	inhibitor	–	1 µM	–	inhibition	10%
COc1c(Cl)cccc1Nc1c(-c2ccncc2C#C[C@@]2(C)CCCN2C(=O)/C=C/CN(C)C)[nH]c2c1C(=O)NCC2	binding	–	competition with immobilised ligand	3 µM	–	remaining binding	100%
